Measured values pooled from the literature.
Each numbered part is a random draw from the data of one study; scales do not carry over between parts. Positions count from the first letter of the parent shown.

Study 1
Target: NFE2L3, bZIP domain (human)
Method: DHFR protein complementation
Sample: yeast
Notes: single substitutions, most at no-binding floor
Reference: wild-type JUN-FOS pair
Direction: higher = stronger binding
Parent: JUN, bZIP domain (human); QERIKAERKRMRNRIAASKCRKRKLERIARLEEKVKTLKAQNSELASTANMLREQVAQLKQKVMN; partner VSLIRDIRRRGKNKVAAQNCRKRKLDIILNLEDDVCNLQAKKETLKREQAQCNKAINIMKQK
| Substitution | binding fitness [natural log] |
| --- | --- |
| Q55T | -1.31 |
| N42V | -1.45 |
| A49R | -1.44 |
| T37W | -1.53 |
| T48H | -1.43 |
| R53V | -1.36 |
| I28Q | -1.46 |
| N42P | -1.54 |
| S47F | -1.36 |
| L38S | -1.53 |
| A29E | -1.36 |
| M51T | -1.45 |
| A40Y | -1.52 |
| V35P | -1.52 |
| V56A | -1.52 |
| A29Y | -1.55 |
| L59R | -1.47 |
| S43R | -1.38 |
| I28E | -1.26 |
| E32M | -1.3 |
| I28G | -1.48 |
| L31P | -1.48 |
| E33G | -1.51 |
| R53Q | -1.5 |

Study 2
Target: Sal-like protein 4, full length isoform B (SALL4, Homo sapiens, UniProt Q9UJQ4-2, residues 1-616)
Method: universal PBM
Form: double-stranded DNA, one strand shown
Sample: in vitro
Concentration: not given
Notes: 8-mer, flanks averaged, mean of replicates
Direction: higher = stronger binding
| Oligonucleotide | E-score |
| --- | --- |
| AAATTAAA | 0.345 |
| AGCGCAAG | -0.141 |
| ACGTCAAA | 0.15 |
| CTCGACAG | -0.129 |
| AAGGTTCT | -0.0169 |
| ACAATATC | 0.345 |
| AATCGGCT | -0.00021 |
| AACTATGC | 0.177 |
| CATTACCA | 0.138 |
| AGGTTAAG | -0.12 |
| AGAAGTCC | -0.169 |
| AATTCCCG | -0.0189 |
| ACATGTGG | 0.133 |
| CACTGACC | -0.225 |
| CTAAGCAA | -0.186 |
| AAGCCACT | -0.0744 |
| ATAGCCCG | -0.168 |
| GTGGTCGA | -0.209 |
| AACGGGGA | -0.123 |
| AGGCCCGG | -0.353 |

Study 3
Target: Histone acetyltransferase KAT6A, winged helix 1, GST fusion (KAT6A, Homo sapiens, UniProt Q92794, residues 1-85)
Method: protein binding microarray
Form: double-stranded DNA, one strand shown
Sample: in vitro
Concentration: not given
Notes: 8-mer, flanks averaged, mean of 2 arrays, mostly near background
Reference: not given
Direction: higher = stronger binding
Target sequence (chain): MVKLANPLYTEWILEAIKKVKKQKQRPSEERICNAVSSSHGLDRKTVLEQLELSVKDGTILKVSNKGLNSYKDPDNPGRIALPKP
| Oligonucleotide | E-score |
| --- | --- |
| AGAGCGAC | 0.0948 |
| AGAAGCGA | -0.0227 |
| ATCTGCCG | 0.276 |
| ACTGGGTG | -0.219 |
| AGCTTGTC | 0.00931 |
| ATTCGCTC | -0.0706 |
| AAGTCCGT | 0.234 |
| ATTAGAAT | -0.291 |
| AAGAAGAA | -0.105 |
| CTATCACA | -0.17 |
| GCGTTTAA | 0.115 |
| AAGCGAGA | 0.0688 |
| ACCATTTG | 0.00271 |
| TATAAATA | -0.0241 |
| AATCTTCG | 0.019 |
| AAATTTTA | -0.217 |
| AAGGGGCA | -0.107 |
| CCGGCTCG | 0.251 |
| GGAGGATA | -0.2 |
| GAGTAACC | 0.0239 |

Study 4
Target: Sox, HMG box (Pigoraptor chileana)
Method: Spec-seq
Form: double-stranded DNA, one strand shown
Sample: in vitro
Concentration: not given
Notes: whole probe, mean of replicates
Reference: not given
Direction: lower = stronger binding
Shared flanks, not repeated: GAGTCGTCTCGTCAGCAC … CCGTAGAGCACTCAGGTC
Residues (chain): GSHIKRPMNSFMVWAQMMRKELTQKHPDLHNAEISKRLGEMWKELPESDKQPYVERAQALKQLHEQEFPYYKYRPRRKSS
| Oligonucleotide | relative binding energy [ln ratio] |
| --- | --- |
| CATCGGC | 0.426 |
| TGCCGTT | 0.908 |
| GCGGGTT | 1.48 |
| CATCGTC | 0.628 |
| AGCAGTT | 0.0796 |
| GTTAGTT | 0.717 |
| TAGTGTT | -0.754 |
| CATCCTC | 0.655 |
| GGTCGTT | 1.31 |
| ATTAGTT | -0.135 |
| CGGTGTT | 0.665 |
| CATCATC | 0.444 |
| CATTGGC | 0.0376 |

Study 5
Target: CCNF, cyclin fold, Cln2 fusion (human)
Method: yeast growth competition, sequencing
Sample: yeast
Notes: weak parent motif
Reference: not given
Direction: higher = stronger binding
Parent: LLGL2 docking peptide (human); KSLKKSLRQSFRR; partner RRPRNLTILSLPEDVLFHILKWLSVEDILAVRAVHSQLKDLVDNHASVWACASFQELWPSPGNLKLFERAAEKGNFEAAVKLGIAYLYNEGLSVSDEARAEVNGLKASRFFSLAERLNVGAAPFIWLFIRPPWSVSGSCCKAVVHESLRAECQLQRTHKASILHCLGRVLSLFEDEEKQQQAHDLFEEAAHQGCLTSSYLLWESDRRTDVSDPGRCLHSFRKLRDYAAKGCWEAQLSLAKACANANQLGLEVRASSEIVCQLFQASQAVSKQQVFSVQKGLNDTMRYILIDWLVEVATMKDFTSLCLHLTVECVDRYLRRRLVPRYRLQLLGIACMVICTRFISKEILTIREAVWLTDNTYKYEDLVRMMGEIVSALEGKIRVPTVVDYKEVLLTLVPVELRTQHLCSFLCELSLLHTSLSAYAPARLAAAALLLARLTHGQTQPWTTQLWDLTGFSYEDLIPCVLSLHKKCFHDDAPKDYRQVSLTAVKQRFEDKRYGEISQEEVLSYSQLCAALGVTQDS
| Substitution | normalised enrichment score |
| --- | --- |
| KSLKKSARQSFRR [L7A] | 0.427 |
| KSLKKSLRQAFRR [S10A] | 1.03 |
| KSLKKSLAQSFRR [R8A] | 0.869 |
| KSLKKSLRQSFAR [R12A] | 1.15 |
| KSLKKSLRQSARR [F11A] | 0.157 |
| KALKKSLRQSFRR [S2A] | 1.07 |
| KSLKKSLRASFRR [Q9A] | 1.54 |

Study 6
Target: ABI1, truncated, D143A, DHFR fusion (Arabidopsis thaliana)
Method: DHFR PCA, deep sequencing
Sample: yeast
Notes: methotrexate growth selection, single substitutions
With: (+)-ABA 0 µM
Reference: wild-type fitted maximum
Direction: higher = stronger binding
Parent: PYL1, truncated, DHFR fusion (Arabidopsis thaliana); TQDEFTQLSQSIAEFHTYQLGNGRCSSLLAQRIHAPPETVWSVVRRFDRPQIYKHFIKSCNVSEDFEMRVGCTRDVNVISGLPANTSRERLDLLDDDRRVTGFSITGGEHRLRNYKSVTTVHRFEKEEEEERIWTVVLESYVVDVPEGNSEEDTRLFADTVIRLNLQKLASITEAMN; partner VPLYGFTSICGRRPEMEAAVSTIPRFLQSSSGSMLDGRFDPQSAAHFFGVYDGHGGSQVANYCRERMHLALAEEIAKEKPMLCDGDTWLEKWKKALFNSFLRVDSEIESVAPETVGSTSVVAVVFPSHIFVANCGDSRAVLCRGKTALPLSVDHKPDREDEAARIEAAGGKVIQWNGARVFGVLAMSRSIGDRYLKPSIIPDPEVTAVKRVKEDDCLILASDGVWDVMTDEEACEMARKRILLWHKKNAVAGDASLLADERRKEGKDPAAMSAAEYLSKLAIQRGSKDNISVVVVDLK
| Substitution | relative binding score |
| --- | --- |
| A35D | -0.0147% |
| V121D | -2.77% |
| V137K | -1.69% |
| I57V | 13.9% |
| S42I | -1.02% |
| Q167D | 2.48% |
| E174M | 0.264% |
| W41Y | 0.629% |
| E89T | -7.1% |
| R49H | 3.31% |
| I12M | 3.64% |
| E139Q | 23.4% |
| S26F | 1.76% |
| L166T | 4.41% |
| N177K | 24.6% |
| F47D | -6.66% |

Single results of other studies
| Substance | target | assay | test system | setting | how to read | measurement | result |
| --- | --- | --- | --- | --- | --- | --- | --- |
| PhoQ, residues 284 288 289 292 302 303 GASLAW | PhoP, residues 12 14 15 18 19 NFCKL (Escherichia coli, UniProt P23836) | Sort-seq, measured: YFP reporter | E. coli | PhoQ-PhoP variant library, with: 10 µM Mg2+ | reference: high Mg2+ state, higher = stronger signaling | fold induction | 4.54 |

A few entries again (study 3):
| Oligonucleotide | E-score |
| --- | --- |
| AATCTTCG | 0.019 |
| AAGCGAGA | 0.0688 |
| AGAAGCGA | -0.0227 |
| AAGGGGCA | -0.107 |
| AGAGCGAC | 0.0948 |
| TATAAATA | -0.0241 |
| GGAGGATA | -0.2 |
| AAGAAGAA | -0.105 |
| ACTGGGTG | -0.219 |
| ATTAGAAT | -0.291 |
| ATCTGCCG | 0.276 |
| ATTCGCTC | -0.0706 |
| AAGTCCGT | 0.234 |
